Measured values from different studies.
Each line is one published result; not all experiments were run side by side. ± gives the spread as reported.

For `CC(C)=CC[C@@H](O)C1=CC(=O)c2c(O)ccc(O)c2C1=O`, the CC50 was 0.4 µM (RD; 3 (unit not given), 33 °C, added: MgCl2 30 mM).
`c1cnc2c(c1)ccc1cccnc12` has a CC50 of 1.28 µM (HepG2 cells; cell viability; 24 h).
`COc1ccc2c3c([nH]c2c1)[C@H](CO)N(Cc1ccccc1)CC31CCN(C(=O)Cc2ccccc2)CC1` gave a CC50 of 60 µM (HEp-2, uninfected; original sample).
`C[C@@H]1[C@H](O)[C@@H](C)/C=C/C=C/C=C/C=C/C=C/C=C/C=C/[C@H](O[C@@H]2O[C@H](C)[C@@H](O)[C@H](N)[C@@H]2O)C[C@@H]2O[C@](O)(C[C@@H](O)C[C@@H](O)[C@H](O)CC[C@@H](O)C[C@@H](O)CC(=O)O[C@H]1C)C[C@H](O)[C@H]2C(=O)O` has a CC50 of ≥ 200 µM (J774A.1; alamarBlue).
For `Nc1cc[c]([Hg][S]c2nc(N)nc3c2ncn3[C@@H]2O[C@H](CO)[C@@H](O)[C@H]2O)cc1`, the CC50 was 4.71 µM (HepG2 cells; cell viability; 24 h).
With `O=c1c2ccccc2[se]n1-c1ccccc1` the CC50 was 5.4 µM (RD; 3 (unit not given), 33 °C, added: MgCl2 30 mM).
`Cc1cccc(-c2ccc([C@@H]3[C@@H](CO)N4CCCCN(S(=O)(=O)c5cn(C)cn5)C[C@@H]34)cc2)c1` has a CC50 of 56 µM (HEp-2, uninfected).
`CC(=NNC(=S)N1CCC1)c1ccccn1` gave a CC50 of < 1.56 µM (HepG2 cells; cell viability; 24 h).
With `CCOC(=O)/C=C/[C@H](C[C@@H]1CCNC1=O)NC(=O)[C@@H](CC(=O)[C@@H](NC(=O)c1cc(C)on1)C(C)C)Cc1ccc(F)cc1` the CC50 was 208.3 ± 1.72 µM (BHK-21; 24 (unit not given)).
`OC(c1cc(C(F)(F)F)nc2c(C(F)(F)F)cccc12)C1CCCCN1` (stereo not shown) gave a CC50 of 8.78 µM (Vero E6, uninfected; cytotoxicity; 72 (unit not given)).
`O=S(=O)(c1cccs1)N1CCCCN2[C@H](CO)[C@@H](c3ccc(/C=C/c4ccccc4)cc3)[C@@H]2C1` has a CC50 of > 100 µM (HEp-2, uninfected; original sample).
`O=C(C[n+]1ccc2ccccc2c1)c1ccc2ccc3ccccc3c2c1` gave a CC50 of 14 µM (HepG2 cells; cell viability; 24 h).
The CC50 of `CN1c2ccc(-c3ccc(C#N)cc3)cc2[C@H]2[C@H](CCN2C(=O)c2cccc(F)c2)[C@@H]1CO` is reported as 29 µM (HEp-2, uninfected; original sample).
The CC50 of `CCN(CC)C(=S)SSC(=S)N(CC)CC` is reported as 1.5 µM (RD; 3 (unit not given), 33 °C, added: MgCl2 30 mM).
`NCC(O)CN.Oc1c(Cl)c(Cl)c(Cl)c(Cl)c1Cl` has a CC50 of 86.2 µM (HepG2 cells; cell viability; 24 h).
`COc1cc(CN2CC3(CCN(S(=O)(=O)c4cn(C)cn4)CC3)c3c(n(C)c4cc(OC)ccc34)[C@H]2CO)cc(OC)c1` gave a CC50 of > 100 µM (HEp-2, uninfected).

Repeated from above:
`CC(=NNC(=S)N1CCC1)c1ccccn1` gave a CC50 of < 1.56 µM (HepG2 cells; cell viability; 24 h).
`c1cnc2c(c1)ccc1cccnc12` has a CC50 of 1.28 µM (HepG2 cells; cell viability; 24 h).
